Published values gathered from unrelated publications.
A part holds a random share of what one study measured. Substitutions count along the parent as printed.

Block 1 — technique: RNA Bind-n-Seq; form: RNA; matrix: in vitro; tested at: not given; relative to: input RNA pool; direction: higher = stronger binding
Target: RING finger protein unkempt homolog, zinc fingers 1-6, GST-SBP tag (UNK, Homo sapiens, UniProt Q9C0B0, residues 30-357)
Setting: RNA with constant flanks, human-mouse chimeric sites, ends assumed
Construct (chain): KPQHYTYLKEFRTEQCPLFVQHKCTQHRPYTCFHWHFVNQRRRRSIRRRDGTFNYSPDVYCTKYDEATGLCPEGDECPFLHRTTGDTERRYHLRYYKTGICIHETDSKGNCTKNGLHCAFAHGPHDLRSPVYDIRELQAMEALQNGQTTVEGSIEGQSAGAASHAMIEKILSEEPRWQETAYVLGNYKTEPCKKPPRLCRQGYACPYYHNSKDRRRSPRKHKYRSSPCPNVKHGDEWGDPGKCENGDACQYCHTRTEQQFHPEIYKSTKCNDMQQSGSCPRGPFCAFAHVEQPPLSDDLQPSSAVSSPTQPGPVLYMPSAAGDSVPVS
Sequence	bound/input enrichment [ratio]
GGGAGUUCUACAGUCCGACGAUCCACACACUCUUCUGCGGGACCCUCAUCUUGCAGGCCCGAGCCUACGUGGGACCGCACGUCCUGGCAGUGGUGACCCGCACAGGGUUCUGCACAGCCAAAGGGGGCCUGGUGAGCUCCAUCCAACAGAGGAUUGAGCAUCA	0.0856
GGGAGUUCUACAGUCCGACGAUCACCUCCCCCUCCCGCCUCACCCCACCCAAGAAAGAAAGAAAGUUUUUGGCGUUUCUUUUCCUUCCCCAUACAAAGUGAUUACAGUUUAGAGUCUAUGGGUCUAUCGAAGGGCUUGACGGACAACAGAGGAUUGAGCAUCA	0.558
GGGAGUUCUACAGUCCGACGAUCGUAGCUGGCCAUUAGGAAAUGCUGGUAGUGCUCCGGCCUUGCUGAUGACUUCUGAUGUCCCAGCAAAUGUUGGCAUUGUUGACUGCUGAGAAGAUACUUCUGAGGACCCACGUCUAAGGUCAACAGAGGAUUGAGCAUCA	0.103
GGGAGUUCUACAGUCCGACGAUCGGUGGGGUGGUCAUUGCCGUUUGAGCUGCUGAUUUUCAUGAGUCGCCUUCAAAACUCUCGUGUAGGGUUGACAAUGUAAGGGGUGGGGAAAUCUAGCUUAUUCUUUUAUUUUCAAGUCCACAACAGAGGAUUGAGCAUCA	6.58
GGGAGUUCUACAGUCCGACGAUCCGAGACAAGACAUCCAGGAACAUGCGAGGCUCCCGGAUGAAUGGACUGCCUAGCCCCACUCACAGCGCCCACUGUAGCUUCUACCGAACCAGAACCUUGCAGGCACUGAGUAAUGAGAAGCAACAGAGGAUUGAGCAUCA	0.0793
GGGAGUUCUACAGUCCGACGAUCAGAGAAAUGAGAAAGAAUCUUACACAAGAAGAGAUGCAAAGAAUGUCUACUAGAGUCCUUUUGGCGACUCUUUCCAUUCCUAUUACUCCUGAGCGAACGGAUAUUGCUCGACUUUUGGAUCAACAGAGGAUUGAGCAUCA	0.154
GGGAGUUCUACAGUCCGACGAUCUAAGUUAUUUUGUACAGCUUUGUAAAUUCUUAACAUUUUUAUAUUGCCAUGUUUAUUUUGUUUGGGUAAUUUGGUUCAUUAAGUACAUAGCUAAGGUACAUCUUUCAGUAAUUAUAGAUUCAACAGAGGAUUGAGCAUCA	2.15
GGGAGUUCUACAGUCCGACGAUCAAAGCCCAAGUAUUUUGAAAAAAUUCAAACAGAUUUGACAAGGGUAGCCAGCUUGGAGUCUAGCAAUUUGCCAAUGUGUUUACCAAUCUGGGGGCUUGUUUUUCUUUUCUUCUUUCAAAUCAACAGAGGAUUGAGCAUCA	0.563

Block 2 — target: CCNB1, cyclin fold, Cln2 fusion (human); technique: yeast growth competition, sequencing; matrix: yeast; setting: weak parent motif; relative to: not given; direction: higher = stronger binding
Starting sequence: CDC25A docking peptide (human); PPHRRRLLFACSP
Change	normalised enrichment score
H3W	1.59
P2T	1.11
A10D	0.672
L8V	0.514
C11Q	0.839
F9W	0.464
A10V	0.394
P2L	0.374
R5D	0.481
F9K	0.342
P1E	0.524
S12I	1.29
P1Q	0.534
A10Y	0.39
R5V	1.28
L7R	0.38
P1F	0.508
S12Q	0.122
P13Q	0.73
F9M	0.953
H3S	1.11
C11G	0.21
R4Q	0.915
S12C	0.504
F9T	1.04

Block 3 — target: JUND, bZIP domain (human); technique: DHFR protein complementation; matrix: yeast; relative to: wild-type JUN-FOS pair; direction: higher = stronger binding
Setting: single substitutions, most at no-binding floor
Starting sequence: JUN, bZIP domain (human); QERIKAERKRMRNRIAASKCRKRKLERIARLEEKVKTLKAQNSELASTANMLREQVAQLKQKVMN
Change	binding fitness
I28S	-1.26 natural log
Q58P	-1.52 natural log
K34P	-1.47 natural log
L38P	-1.44 natural log
L59R	-1.34 natural log
E54P	-1.42 natural log
V56G	-1.47 natural log
L52I	-1.36 natural log
L45A	-1.36 natural log
V35S	-1.3 natural log
Q41F	-1.45 natural log
Q55G	-1.38 natural log
L59S	-1.38 natural log
A49P	-1.47 natural log
L52T	-1.54 natural log

Block 4 — technique: protein binding microarray; form: double-stranded DNA, one strand shown; matrix: in vitro; tested at: not given; relative to: not given; direction: higher = stronger binding
Target: Histone acetyltransferase KAT6A, both winged helices, GST fusion (KAT6A, Homo sapiens, UniProt Q92794, residues 1-181)
Setting: 8-mer, flanks averaged, mean of 2 arrays, mostly near background
Target sequence (chain): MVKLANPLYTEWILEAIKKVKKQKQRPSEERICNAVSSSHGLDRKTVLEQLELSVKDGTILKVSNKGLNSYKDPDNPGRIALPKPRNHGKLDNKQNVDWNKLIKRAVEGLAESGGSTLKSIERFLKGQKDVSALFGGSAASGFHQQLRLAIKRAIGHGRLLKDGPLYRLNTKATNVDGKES
Sequence	E-score
GAAGTGCA	-0.0155
ATATATAG	0.00537
CACTACGA	-0.101
AACTGGGA	-0.144
AAGCGCTG	0.328
ATATGGCA	0.042
GCACAAGA	-0.0404
CCCCGCTC	0.098
GCCTAAGC	-0.00775
AGTCAGGC	-0.075
AGGCAACC	-0.125
TATGAAGA	-0.136
ACGTTTAG	-0.00843
GCGAACGA	0.0547
CACCGGGG	0.102
AATTGTCC	-0.00912
ATAATTCA	0.0188
AGATCGCG	0.243
GGTCTCCA	-0.197
TGGCATAA	-0.136

Block 5 — technique: DHFR PCA, deep sequencing; matrix: yeast; together with: (+)-ABA 0.39 µM; relative to: wild-type fitted maximum; direction: higher = stronger binding
Target: ABI1, truncated, D143A, DHFR fusion (Arabidopsis thaliana)
Setting: methotrexate growth selection, single substitutions
Starting sequence: PYL1, truncated, DHFR fusion (Arabidopsis thaliana); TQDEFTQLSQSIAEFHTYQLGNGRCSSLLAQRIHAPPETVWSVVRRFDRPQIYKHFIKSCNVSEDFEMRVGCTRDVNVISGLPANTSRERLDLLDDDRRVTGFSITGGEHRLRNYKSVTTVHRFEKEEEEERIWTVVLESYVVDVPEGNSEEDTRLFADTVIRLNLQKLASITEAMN
Change	relative binding score [%]
D3P	38.6
E127I	35.8
D92G	-0.449
F124K	-2.32
V142S	26.5
Q2H	47.7
S27T	-0.936
D48K	-10.7
R74G	-4.74
R113W	-7.59
P50L	-0.862
A170T	23.3
S11R	1.48
L8V	4.75
Y53C	-5.23
F157R	10.6
N61G	4.86
E109H	21.9
Q10R	37.9
L94S	0.242
S140E	2.23
K54A	-14.8

For quick reference, copied from above (block 5):
Change	relative binding score [%]
D92G	-0.449
F124K	-2.32
V142S	26.5
Q2H	47.7
S27T	-0.936
D48K	-10.7
R74G	-4.74
R113W	-7.59
P50L	-0.862
A170T	23.3
S11R	1.48
L8V	4.75
Y53C	-5.23
F157R	10.6
N61G	4.86
